Assay results from different studies.
Matrix: plasma

COc1ccc([C@@H](O)c2cc(-c3ncnc4cc(N5CCOCC5)ccc34)c(F)cc2Cl)nn1
Tmax (human; oral, 200 mg, multiple doses, once daily, patients): 2.28 h

CC(C)n1nc(-c2ccc3oc(N)nc3c2)c2c(N)ncnc21
Tmax (human; oral, 20 mg, multiple doses, patients): 2.63 h

CCCOc1ccc([C@H]2CNC(=O)N2c2ccc3[nH]cnc3c2)cc1
Tmax (human; oral, 200 mg, single dose, fasted, healthy volunteers): 1 h

O=C(COc1ccc(Cl)cc1)NC12CC(c3nnc([C@H]4C[C@@H](OC(F)(F)F)C4)o3)(C1)C2
Tmax (human; oral, 200 mg, multiple doses, once daily, steady state, healthy volunteers): 4 h

CN1CC[C@@H](c2c(O)cc(O)c3c(=O)cc(-c4ccc(C(F)(F)F)cc4Cl)oc23)[C@@H]1CO
Tmax (human; oral, 150 mg, patients): 4.2 h

CC(C)(C)[C@@H]1NC(=O)O[C@@H]2CCC[C@H]2OC/C=C/C(F)(F)c2nc3ccccc3nc2O[C@@H]2C[C@@H](C(=O)N[C@]3(C(=O)NS(=O)(=O)C4(C)CC4)C[C@H]3C(F)F)N(C2)C1=O
Tmax (human; oral, single dose): 3.5 h

CCc1nc2c(C)cc(N3CCN(CC(=O)N4CC(O)C4)CC3)cn2c1N(C)c1nc(-c2ccc(F)cc2)c(C#N)s1
Tmax (human; oral, 600 mg, fed, healthy volunteers): 2 h

CS(=O)(=O)n1cc2c(n1)CN([C@H]1CO[C@H](c3cc(F)ccc3F)[C@@H](N)C1)C2
Tmax (male human; oral, 10 mg, single dose, fasted): 1 h

NS(=O)(=O)OC[C@@H]1C[C@@H](n2ccc3c(N[C@H]4CCc5ccccc54)ncnc32)C[C@@H]1O
Tmax (human; intravenous, 35 mg/m², patients): 1.05 h

Repeated from above:
CC(C)(C)[C@@H]1NC(=O)O[C@@H]2CCC[C@H]2OC/C=C/C(F)(F)c2nc3ccccc3nc2O[C@@H]2C[C@@H](C(=O)N[C@]3(C(=O)NS(=O)(=O)C4(C)CC4)C[C@H]3C(F)F)N(C2)C1=O
Tmax (human; oral, single dose): 3.5 h
